Results of several laboratories.
Every numbered part comes from another study and shows a few of its results, in no order. Positions count from the first letter of the parent shown.

Sample 1
Target: Hepatocyte nuclear factor 3-beta, forkhead domain (FOXA2, Homo sapiens, UniProt Q9Y261, residues 142-269)
Method: protein-binding microarray
Form: double-stranded DNA, one strand shown
Matrix: in vitro
Tested at: not given
Notes: k-mer, scored over probes, only values ≥0.25
Reading: higher = stronger binding
Measurement: E-score
Construct (chain): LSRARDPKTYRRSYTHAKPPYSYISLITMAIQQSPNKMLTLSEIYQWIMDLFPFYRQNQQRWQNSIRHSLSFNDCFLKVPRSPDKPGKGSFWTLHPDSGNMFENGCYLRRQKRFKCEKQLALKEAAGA
CAACTATA: 0.299
AGATATAG: 0.314
GTTATATA: 0.352
ATCATGTG: 0.279
ATTCCACA: 0.294
GTGTTTGA: 0.353
TAATCATA: 0.354
AATGATTG: 0.279

Sample 2
Target: Ras GTPase-activating protein-binding protein 1, full length (G3BP1, Homo sapiens, UniProt Q13283)
Chain of UniProt Q13283 (whole entry, looked up): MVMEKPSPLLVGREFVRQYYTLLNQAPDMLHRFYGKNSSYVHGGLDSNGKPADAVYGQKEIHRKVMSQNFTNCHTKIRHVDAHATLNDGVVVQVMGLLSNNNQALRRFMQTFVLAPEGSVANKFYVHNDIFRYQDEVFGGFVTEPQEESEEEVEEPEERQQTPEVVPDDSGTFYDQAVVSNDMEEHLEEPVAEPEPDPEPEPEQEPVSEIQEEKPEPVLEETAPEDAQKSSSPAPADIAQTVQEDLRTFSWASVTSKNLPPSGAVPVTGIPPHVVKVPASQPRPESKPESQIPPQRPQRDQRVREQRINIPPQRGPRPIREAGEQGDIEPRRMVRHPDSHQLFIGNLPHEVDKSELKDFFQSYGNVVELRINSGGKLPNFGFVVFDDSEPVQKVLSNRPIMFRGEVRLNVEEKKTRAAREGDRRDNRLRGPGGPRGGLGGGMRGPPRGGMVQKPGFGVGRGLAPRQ
Method: RNA Bind-n-Seq
Form: RNA
Matrix: in vitro
Tested at: 200 nM
Notes: whole 134-nt RNA, ends assumed
Together with: 150 mM LiCl
Relative to: input library
Reading: higher = stronger binding
Measurement: log2 enrichment
All molecules: 7-deaza-guanosine replaces G
Constant ends, left off below: GGGAGUUCUACAGUCCGACGAUC … UGGAAUUCUCGGGUGUCAAGG
UCCUCAAGUCCUGUGCUACACAUCGUAUGUACCGAAUCGGGGUGGUGGGUGGAAAGUAUUAUGUUACGCCGUUCGGAUCUGCACUUCCAG: 0.0471
CUGUGCUACACAUCGUAUGUACCGAAUCGGGGAAAAAAAGGAAAAAAAGGGGAAAAAAAGGGAAAGUAUUAUGUUACGCCGUUCGGAUCU: 0.193
UCCUGUGCUACACAUCGUAUGUACCGAAUCGGGAAAAAAGGAAAAAAGGGGAAAAAAGGGAAAGUAUUAUGUUACGCCGUUCGGAUCUGC: -0.223
AAGUCCUGUGCUACACAUCGUAUGUACCGAAUCAAAUUUUUAAACCCAAAUUUAAAAAAGUAUUAUGUUACGCCGUUCGGAUCUGCACUU: -2.31
CCUGUGCUACACAUCGUAUGUACCGAAUCGGGGUUUUUUGGGUUUUUUGGUUUUUUGGGGAAAGUAUUAUGUUACGCCGUUCGGAUCUGC: 0.152
CACAGACAACACGCACCCACACAGACACAGAGGGAAGGGGUUGGGAUGGGGACAGGGUGCACAGCAGGGCGGGGUAGGACCCCAGCUCCU: -1.27
GCAGGGAGUAAAAACAAAUGGAAAUGCUUCGGAUAGUGGCAGGGGUGGGGGUUGCUAAGGAAAGGGUGGGAUGGGAGUGGGUAAAGAGUU: -0.0288
UCCUCAAGUCCUGUGCUACACAUCGUAUGUACCGAAUCGGGAGGGAGGAGGAAAGUAUUAUGUUACGCCGUUCGGAUCUGCACUUCCAGC: -0.672

Sample 3
Target: Interferon regulatory factor 5, full length, phosphomimetic (IRF5, Homo sapiens, UniProt Q13568-2, residues 1-514, S451D/S453D/S456D/S462D)
Method: protein-binding microarray
Form: double-stranded DNA, one strand shown
Matrix: in vitro
Tested at: 940 nM top
Notes: 60-bp whole probe
Together with: salmon DNA 0.4 mg/ml
Relative to: random background probes
Reading: higher = stronger binding
Measurement: fitted relative affinity
Constant ends, left off below: GCCTAGCAC … GTCTTGATTCGCTTGACGCTGCTG
TTAGGTATCGACACGGGGTTAGTGCTA: 5.42 z-score
TTAGATCTCGGGTTTCGATTAGTGCTA: 5.18 z-score
CTCTGCTTGGGTCTGGGTATGTGCTAG: -0.494 z-score
TTAGTTTTCATTATTGTGTCGTGCTAG: 2.67 z-score
TTTGGTGTCTTTTGTGGAAACGTGCTA: -0.0569 z-score
TTAGAATTGAGACTGGATTAGTGCTAG: -0.107 z-score
CCTCACATGACTGAATGGACGTGCTAG: -0.332 z-score
GACGGTCTCCTTTCCCTGACGTGCTAG: 0.733 z-score

Single results of other studies
Parent: viral docking peptide; KGVKRKLFAEDSS
A9I  normalised enrichment score (CCND2, cyclin fold, Cln2 fusion (human); yeast growth competition, sequencing; yeast; weak parent motif; relative to: not given, higher = stronger binding): 0.0364

Excerpt of the above (sample 3):
CTCTGCTTGGGTCTGGGTATGTGCTAG: -0.494 z-score
TTAGTTTTCATTATTGTGTCGTGCTAG: 2.67 z-score
